Measurements pooled from the literature.
Each numbered part is a random draw from the data of one study; scales do not carry over between parts. Several values in a cell are separate wells, animals, samples, runs or records.
UniProt P07949, sequence (whole entry, looked up): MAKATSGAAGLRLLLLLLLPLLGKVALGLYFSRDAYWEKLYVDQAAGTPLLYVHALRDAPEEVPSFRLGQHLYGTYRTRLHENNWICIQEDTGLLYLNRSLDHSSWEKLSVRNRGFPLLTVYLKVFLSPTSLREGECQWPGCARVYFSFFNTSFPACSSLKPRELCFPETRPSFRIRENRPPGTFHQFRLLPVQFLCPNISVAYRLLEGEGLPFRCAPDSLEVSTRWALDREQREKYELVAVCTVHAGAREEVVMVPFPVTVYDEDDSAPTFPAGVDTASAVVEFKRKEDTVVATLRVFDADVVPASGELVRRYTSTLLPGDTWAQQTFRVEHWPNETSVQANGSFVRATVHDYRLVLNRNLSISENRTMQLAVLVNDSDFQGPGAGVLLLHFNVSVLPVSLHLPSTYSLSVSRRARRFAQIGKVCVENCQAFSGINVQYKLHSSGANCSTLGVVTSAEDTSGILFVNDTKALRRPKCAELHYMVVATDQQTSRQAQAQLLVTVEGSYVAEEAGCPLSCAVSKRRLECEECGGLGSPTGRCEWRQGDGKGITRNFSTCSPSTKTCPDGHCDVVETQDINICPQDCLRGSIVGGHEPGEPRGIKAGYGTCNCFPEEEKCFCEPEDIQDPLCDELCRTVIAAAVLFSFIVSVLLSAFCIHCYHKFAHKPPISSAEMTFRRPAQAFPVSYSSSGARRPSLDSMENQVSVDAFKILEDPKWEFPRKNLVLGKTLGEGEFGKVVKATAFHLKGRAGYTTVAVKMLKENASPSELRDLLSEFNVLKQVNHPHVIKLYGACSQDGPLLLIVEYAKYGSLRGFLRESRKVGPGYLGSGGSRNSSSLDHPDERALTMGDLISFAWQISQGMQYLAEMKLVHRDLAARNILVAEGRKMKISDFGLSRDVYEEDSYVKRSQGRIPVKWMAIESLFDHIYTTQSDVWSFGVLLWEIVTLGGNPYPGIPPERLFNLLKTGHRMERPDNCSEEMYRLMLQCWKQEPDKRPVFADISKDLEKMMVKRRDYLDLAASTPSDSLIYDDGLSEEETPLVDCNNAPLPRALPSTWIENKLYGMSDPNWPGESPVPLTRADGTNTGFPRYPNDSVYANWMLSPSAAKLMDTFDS
UniProt Q96PN8, sequence (whole entry, looked up): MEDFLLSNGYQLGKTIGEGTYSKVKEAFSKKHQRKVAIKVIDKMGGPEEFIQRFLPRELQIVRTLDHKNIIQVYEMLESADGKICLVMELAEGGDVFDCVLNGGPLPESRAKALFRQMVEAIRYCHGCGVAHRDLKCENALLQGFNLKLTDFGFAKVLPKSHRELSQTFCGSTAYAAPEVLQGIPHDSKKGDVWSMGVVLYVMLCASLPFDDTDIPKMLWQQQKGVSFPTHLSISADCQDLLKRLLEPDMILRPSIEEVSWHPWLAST

Sample 1
Target: Calcium/calmodulin-dependent protein kinase type II subunit alpha (CAMK2A, Homo sapiens, UniProt Q9UQM7)
UniProt Q9UQM7, sequence (whole entry, looked up): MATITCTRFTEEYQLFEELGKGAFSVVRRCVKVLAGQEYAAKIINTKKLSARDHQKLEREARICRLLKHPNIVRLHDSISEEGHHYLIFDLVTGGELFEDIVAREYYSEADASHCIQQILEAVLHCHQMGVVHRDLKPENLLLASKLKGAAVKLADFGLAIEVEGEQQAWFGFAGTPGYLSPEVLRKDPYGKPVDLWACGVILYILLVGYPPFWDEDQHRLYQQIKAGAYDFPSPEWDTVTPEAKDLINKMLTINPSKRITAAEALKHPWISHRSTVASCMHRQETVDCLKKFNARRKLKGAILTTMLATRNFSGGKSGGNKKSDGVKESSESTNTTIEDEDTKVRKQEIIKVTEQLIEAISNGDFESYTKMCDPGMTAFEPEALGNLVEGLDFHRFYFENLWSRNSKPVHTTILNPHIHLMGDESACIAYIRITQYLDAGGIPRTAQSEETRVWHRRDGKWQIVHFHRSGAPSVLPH
Effect on: enzyme activity
Action: inhibitor
Concentration: 10 µM
Quantity: inhibition
CC(C)CCCCCCCCCCCC(=O)O: -100%
COc1ccc(CC(=O)O)cc1OC: 20%
COc1cc(/C=C/C(=O)NCCc2c[nH]c3ccc(O)cc23)ccc1O: 16%
COc1ccc(O)c(C(=O)O)c1: -1%
CC(C)(C)c1ccc(O)c(C(C)(C)C)c1: -13%
OCC(O)CN1CCN(c2ccccc2)CC1 (stereo not shown): 1%
CC(CC(=O)C[C@@H](C)[C@H]1CC(=O)[C@@]2(C)C3=C(C(=O)[C@@H](O)[C@]12C)[C@@]1(C)CC[C@H](O)C(C)(C)[C@@H]1C[C@@H]3O)C(=O)O (stereo partly shown): 5%
COc1ccc(/C=C/C(=O)O[C@@H]2[C@H](O[C@@H]3O[C@@H](C)[C@H](O)[C@@H](O)[C@H]3O)[C@@H](O[C@@H]3O[C@@H](C)[C@H](O[C@@H]4OC[C@@H](O[C@@H]5O[C@H](CO)[C@H](O)[C@H](O)[C@H]5O)[C@H](O)[C@H]4O)[C@@H](O)[C@H]3O)[C@H](OC(=O)[C@]34CCC(C)(C)C[C@H]3C3=CC[C@@H]5[C@@]6(C)C[C@H](O)[C@H](O[C@@H]7O[C@H](CO)[C@@H](O)[C@H](O)[C@H]7O)[C@@](C)(C(=O)O)[C@@H]6CC[C@@]5(C)[C@]3(CO)CC4)O[C@@H]2C)cc1: 27%

Sample 2
SMILES: CC(C)S(=O)(=O)c1cc2c(Nc3ccc4sc(C5CCCC5)nc4c3)ccnc2cc1OCCO
Target: Receptor-interacting serine/threonine-protein kinase 3 (RIPK3, Homo sapiens, UniProt Q9Y572)
UniProt Q9Y572, sequence (whole entry, looked up): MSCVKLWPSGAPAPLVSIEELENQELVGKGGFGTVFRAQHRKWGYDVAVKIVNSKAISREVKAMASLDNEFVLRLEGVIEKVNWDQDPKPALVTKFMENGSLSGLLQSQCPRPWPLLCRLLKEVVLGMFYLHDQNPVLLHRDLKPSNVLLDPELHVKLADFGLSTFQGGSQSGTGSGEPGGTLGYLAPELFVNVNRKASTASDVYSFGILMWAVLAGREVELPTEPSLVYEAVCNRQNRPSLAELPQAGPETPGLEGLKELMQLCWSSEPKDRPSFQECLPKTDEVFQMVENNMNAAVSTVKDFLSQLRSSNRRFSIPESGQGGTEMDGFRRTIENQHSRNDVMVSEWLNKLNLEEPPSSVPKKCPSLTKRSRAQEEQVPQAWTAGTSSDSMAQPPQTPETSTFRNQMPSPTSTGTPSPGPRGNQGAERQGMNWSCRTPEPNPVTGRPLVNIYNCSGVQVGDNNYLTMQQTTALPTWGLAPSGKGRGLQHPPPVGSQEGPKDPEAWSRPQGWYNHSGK
Effect on: kinase activity
Action: inhibitor
Method: ADP-Glo
Time: 1 h
Quantity: inhibition
75 nM: 101%
37.5 nM: 87.9%
150 nM: 101%
300 nM: 102%

Sample 3
Organism: Sarcocystis neurona
Effect on: parasite growth
Concentration: 10 µM
Time: 96 h
Setting: first screen
Quantity: inhibition
Cc1ccc(O)c([C@H](CCN(C(C)C)C(C)C)c2ccccc2)c1: 12.1%
NCC(=O)CCC(=O)O: -17%
CC(=O)OCC(=O)NCCCOc1cccc(CN2CCCCC2)c1: 5.9%
Cc1cccc(Nc2ccccc2C(=O)O)c1C: -3.9%
COc1cc(C)nc(-n2nc(C)cc2OC)n1: 6.7%
O=C(c1ccc(OCCN2CCCCC2)cc1)c1c(-c2ccc(O)cc2)sc2cc(O)ccc12: 17%
Nc1nc(Cl)nc2c1ncn2[C@H]1C[C@H](O)[C@@H](CO)O1: -6.7%
Cc1ncc([N+](=O)[O-])n1CC(O)CCl (stereo not shown): -1.8%
Cc1cccc(C)c1NC(=O)C1CCCCN1C (stereo not shown): -4.2%
Nc1ccc(O)c(C(=O)O)c1: -8.4%

Sample 4
Target: DNA polymerase theta, ATPase domain (POLQ, Homo sapiens, UniProt O75417)
UniProt O75417, sequence (whole entry, unmodified, looked up): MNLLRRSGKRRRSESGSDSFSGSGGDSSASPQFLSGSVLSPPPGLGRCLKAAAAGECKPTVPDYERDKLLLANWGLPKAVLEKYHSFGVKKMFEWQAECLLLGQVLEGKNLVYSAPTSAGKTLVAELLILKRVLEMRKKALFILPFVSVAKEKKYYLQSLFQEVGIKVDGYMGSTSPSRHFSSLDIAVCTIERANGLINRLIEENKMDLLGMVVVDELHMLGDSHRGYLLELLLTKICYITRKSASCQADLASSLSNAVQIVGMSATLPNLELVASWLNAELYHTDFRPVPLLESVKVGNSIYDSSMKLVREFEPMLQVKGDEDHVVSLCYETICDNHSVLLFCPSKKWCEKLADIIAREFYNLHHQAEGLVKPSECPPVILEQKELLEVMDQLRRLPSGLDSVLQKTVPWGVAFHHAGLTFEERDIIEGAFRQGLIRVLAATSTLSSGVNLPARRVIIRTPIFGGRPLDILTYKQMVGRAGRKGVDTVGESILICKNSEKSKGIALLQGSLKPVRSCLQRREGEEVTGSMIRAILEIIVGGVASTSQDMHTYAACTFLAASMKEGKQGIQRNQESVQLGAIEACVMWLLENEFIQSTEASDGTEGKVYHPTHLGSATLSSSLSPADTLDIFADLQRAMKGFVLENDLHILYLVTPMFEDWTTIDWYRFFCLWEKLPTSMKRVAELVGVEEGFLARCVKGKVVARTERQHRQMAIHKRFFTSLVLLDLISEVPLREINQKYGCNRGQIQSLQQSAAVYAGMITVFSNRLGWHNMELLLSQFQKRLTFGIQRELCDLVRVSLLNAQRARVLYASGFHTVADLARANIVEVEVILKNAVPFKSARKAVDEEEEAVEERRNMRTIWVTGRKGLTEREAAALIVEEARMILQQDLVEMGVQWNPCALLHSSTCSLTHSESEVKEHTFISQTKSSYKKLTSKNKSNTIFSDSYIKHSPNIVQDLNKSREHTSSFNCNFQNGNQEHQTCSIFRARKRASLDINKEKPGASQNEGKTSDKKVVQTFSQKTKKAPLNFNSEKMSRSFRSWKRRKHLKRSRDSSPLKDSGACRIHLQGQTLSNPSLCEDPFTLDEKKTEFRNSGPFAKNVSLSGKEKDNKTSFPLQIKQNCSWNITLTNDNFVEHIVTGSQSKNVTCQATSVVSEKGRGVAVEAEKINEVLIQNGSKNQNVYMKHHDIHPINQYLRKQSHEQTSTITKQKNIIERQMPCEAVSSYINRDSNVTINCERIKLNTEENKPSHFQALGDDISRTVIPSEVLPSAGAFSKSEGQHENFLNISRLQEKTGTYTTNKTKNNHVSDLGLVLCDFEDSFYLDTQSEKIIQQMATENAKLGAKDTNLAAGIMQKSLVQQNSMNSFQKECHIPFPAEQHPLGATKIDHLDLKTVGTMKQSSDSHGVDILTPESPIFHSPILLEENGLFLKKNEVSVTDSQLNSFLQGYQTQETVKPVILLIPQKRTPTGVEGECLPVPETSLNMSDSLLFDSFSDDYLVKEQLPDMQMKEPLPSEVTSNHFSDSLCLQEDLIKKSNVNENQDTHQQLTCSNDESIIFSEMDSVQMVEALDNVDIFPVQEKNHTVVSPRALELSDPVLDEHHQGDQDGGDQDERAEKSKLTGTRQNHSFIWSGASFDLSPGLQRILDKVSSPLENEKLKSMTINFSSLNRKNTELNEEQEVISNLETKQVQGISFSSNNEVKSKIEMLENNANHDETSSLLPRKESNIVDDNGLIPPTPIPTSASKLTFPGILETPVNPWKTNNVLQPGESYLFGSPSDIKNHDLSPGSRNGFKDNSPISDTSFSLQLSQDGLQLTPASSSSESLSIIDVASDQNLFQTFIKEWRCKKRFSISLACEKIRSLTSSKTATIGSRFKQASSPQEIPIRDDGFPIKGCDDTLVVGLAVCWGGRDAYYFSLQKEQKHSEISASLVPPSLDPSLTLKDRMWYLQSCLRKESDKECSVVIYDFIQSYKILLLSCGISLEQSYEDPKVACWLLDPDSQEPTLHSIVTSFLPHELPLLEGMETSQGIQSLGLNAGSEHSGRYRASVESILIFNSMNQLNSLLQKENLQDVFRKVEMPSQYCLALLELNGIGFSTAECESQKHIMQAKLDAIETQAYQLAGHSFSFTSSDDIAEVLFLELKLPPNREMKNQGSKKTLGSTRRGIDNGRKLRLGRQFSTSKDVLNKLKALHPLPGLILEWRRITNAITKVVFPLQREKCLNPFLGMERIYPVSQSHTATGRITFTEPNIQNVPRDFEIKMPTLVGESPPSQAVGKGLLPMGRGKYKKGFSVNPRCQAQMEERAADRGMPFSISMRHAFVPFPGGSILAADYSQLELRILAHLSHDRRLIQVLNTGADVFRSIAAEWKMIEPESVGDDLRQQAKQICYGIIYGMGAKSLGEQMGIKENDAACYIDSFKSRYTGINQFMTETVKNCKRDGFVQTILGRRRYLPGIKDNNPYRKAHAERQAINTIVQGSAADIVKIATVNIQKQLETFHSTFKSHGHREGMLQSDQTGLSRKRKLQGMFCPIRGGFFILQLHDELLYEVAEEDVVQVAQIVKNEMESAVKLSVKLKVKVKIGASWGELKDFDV
Effect on: enzyme activity
Action: inhibitor
Concentration: 77 µM
Baseline: untreated
Quantity: remaining activity
Nc1nc2ccc(Cl)cc2n2c(-c3ccccc3)nnc12: 98%
CC(=O)[C@H]1CC[C@H]2[C@@H]3C=CC4=CC(=O)CC[C@@]4(C)[C@@H]3CC[C@]12C: 96.5% and 91.8%
Cn1cc(/C=C2\C(=O)Nc3ccc(S(N)(=O)=O)cc32)c2ccccc21: 109%
CCOc1ccc(Cc2nccc3cc(OCC)c(OCC)cc23)cc1OCC: 99.6%
O=c1cc(-c2ccc(O)c(O)c2)oc2cc(O)cc(O)c12: 99.2%
C[N+]1(C)[C@@H]2CC[C@H]1C[C@@H](OC(=O)C(O)c1ccccc1)C2 (stereo partly shown): 102%
CC(C(=O)O)c1ccc2c(c1)Cc1cccnc1O2 (stereo not shown): 98.4%

Sample 5
Compound: CC(=O)C1=C(C)N(c2cccc(C(F)(F)F)c2)C(=O)N[C@@H]1c1ccc(C#N)nc1
Effect on: cell-free assay
Method: competition with immobilised ligand
Concentration: 1 µM
Quantity: remaining binding
Interleukin-1 receptor-associated kinase 1 (IRAK1, Homo sapiens, UniProt P51617): 100%
Tyrosine-protein kinase receptor UFO (AXL, Homo sapiens, UniProt P30530): 100%
Proto-oncogene tyrosine-protein kinase receptor Ret (RET, Homo sapiens, UniProt P07949): 92.4%
Mitogen-activated protein kinase 15 (MAPK15, Homo sapiens, UniProt Q8TD08): 100%
Serine/threonine-protein kinase mTOR (MTOR, Homo sapiens, UniProt P42345): 92.5%
Calcium/calmodulin-dependent protein kinase kinase 1 (CAMKK1, Homo sapiens, UniProt Q8N5S9): 100%
Serine/threonine-protein kinase Nek1 (NEK1, Homo sapiens, UniProt Q96PY6): 100%
Tyrosine-protein kinase Fyn (FYN, Homo sapiens, UniProt P06241): 100%
Protein kinase C eta type (PRKCH, Homo sapiens, UniProt P24723): 91.3%
Peripheral plasma membrane protein CASK (CASK, Homo sapiens, UniProt O14936): 100%
Serine/threonine-protein kinase PAK 6 (PAK6, Homo sapiens, UniProt Q9NQU5): 92.7%
Serine/threonine-protein kinase MARK2 (MARK2, Homo sapiens, UniProt Q7KZI7): 100%
Receptor tyrosine-protein kinase erbB-2 (ERBB2, Homo sapiens, UniProt P04626): 95.6%
Atypical kinase COQ8B, mitochondrial (COQ8B, Homo sapiens, UniProt Q96D53): 100%
Tyrosine-protein kinase receptor Tie-1 (TIE1, Homo sapiens, UniProt P35590): 89.9%
TGF-beta receptor type-2 (TGFBR2, Homo sapiens, UniProt P37173): 67.8%
Mitogen-activated protein kinase 10 (MAPK10, Homo sapiens, UniProt P53779): 100%
Tyrosine-protein kinase BTK (BTK, Homo sapiens, UniProt Q06187): 100%
Ribosomal protein S6 kinase alpha-1, N-terminal kinase domain (RPS6KA1, Homo sapiens, UniProt Q15418): 100%
Testis-specific serine/threonine-protein kinase 3 (TSSK3, Homo sapiens, UniProt Q96PN8): 96.2%
Mitogen-activated protein kinase kinase kinase 2 (MAP3K2, Homo sapiens, UniProt Q9Y2U5): 100%
Serine/threonine-protein kinase PAK 4 (PAK4, Homo sapiens, UniProt O96013): 97.9%
Ribosomal protein S6 kinase alpha-5, N-terminal kinase domain (RPS6KA5, Homo sapiens, UniProt O75582): 89.2%
G protein-coupled receptor kinase 4 (GRK4, Homo sapiens, UniProt P32298): 100%
Ephrin type-A receptor 6 (EPHA6, Homo sapiens, UniProt Q9UF33): 94.5%

Other studies, line by line
CC(C)C[C@@H](C=O)NC(=O)[C@H](CC(C)C)NC(=O)[C@H](CC(C)C)NC(=O)OCc1ccccc1  protein level (Membrane-associated tyrosine- and threonine-specific cdc2-inhibitory kinase (PKMYT1, Homo sapiens, UniProt Q99640); immunoblotting; 0.1 µM, unit not given; baseline: untreated): 1.25

Excerpt of the above (sample 5):
Ribosomal protein S6 kinase alpha-5, N-terminal kinase domain (RPS6KA5, Homo sapiens, UniProt O75582): 89.2%
Testis-specific serine/threonine-protein kinase 3 (TSSK3, Homo sapiens, UniProt Q96PN8): 96.2%
Serine/threonine-protein kinase MARK2 (MARK2, Homo sapiens, UniProt Q7KZI7): 100%
Proto-oncogene tyrosine-protein kinase receptor Ret (RET, Homo sapiens, UniProt P07949): 92.4%
